Published values gathered from unrelated publications.
Lines come from different studies, so protocols differ.
Organism: Staphylococcus aureus

SMILES | assay | test system | conditions | MIC
NC(=O)c1ccc(N(C(N)=O)c2c(F)cccc2F)nc1-c1ccc(F)cc1F |  | NCTC 8325 |  | > 30 µM
CC[C@H](C)[C@H](N)C(=O)N[C@@H](CC(C)C)C(=O)NCC(=O)N[C@H](CCCNC(=N)N)C(=O)N[C@H](C(=O)N[C@@H](Cc1ccccc1)C(=O)N[C@@H](CCCCN)C(=O)NCC(=O)N[C@H](C(=O)N[C@@H](CCCCN)C(=O)N[C@@H](CC(=O)O)C(=O)N[C@H](C(=O)N[C@@H](CC(C)C)C(N)=O)[C@@H](C)CC)[C@@H](C)CC)[C@@H](C)CC | broth microdilution | ATCC 25923, Mueller-Hinton broth | 16 h, 37 °C | 12.5 µM
Cc1ccc2[nH]c3c(c2c1)CCCC3NCCc1ccc(Br)cc1 (stereo not drawn) | broth microdilution | HG001 daptomycin-resistant |  | 4 µg/mL
CCCCCCCCCC(=O)N[C@@H](Cc1c[nH]c2ccccc12)C(=O)N[C@H](CC(N)=O)C(=O)N[C@@H](CC(=O)O)C(=O)N[C@@H]1C(=O)NCC(=O)N[C@@H](CCCN)C(=O)N[C@@H](CC(=O)O)C(=O)N[C@H](C)C(=O)N[C@@H](CC(=O)O)C(=O)NCC(=O)N[C@H](CO)C(=O)N[C@@H]([C@H](C)CC(=O)O)C(=O)N[C@@H](CC(=O)c2ccccc2N)C(=O)O[C@@H]1C |  | CRB, PBP4 overexpressor |  | 4 µg/mL
CC(C)C[C@@H](NC(=O)CNC(=O)[C@@H](CCCCN)NC(=O)[C@@H](CC(C)C)NC(=O)[C@@H](CCCCN)NC(=O)[C@@H](CCCNC(=N)N)NC(=O)[C@@H](CC(C)C)NC(=O)[C@@H](CC(C)C)NC(=O)[C@@H](CCCNC(=N)N)NC(=O)[C@H](N)CCCNC(=N)N)C(=O)N[C@H](CCCCN)C(=O)N[C@H](CCCCN)C(=O)N[C@H](Cc1ccc(O)cc1)C(=O)N[C@H](CC(C)C)C(=O)N[C@H](Cc1ccc(O)cc1)C(=O)N[C@H](Cc1ccccc1)C(=O)N[C@H](CCCCN)C(=O)N[C@H](CC(C)C)C(=O)N[C@H](CCC(N)=O)C(=O)N[C@H](CC(C)C)C(=O)N[C@H](CC(C)C)C(=O)N[C@H](CCCCN)C(=O)N[C@H](CCCCN)C(N)=O | broth microdilution | KCTC 1621, Mueller-Hinton broth | together with: FeCl3 4 µM | 8 µM
CCCCCCC#Cc1cncc(-c2nnc(SCc3cc([N+](=O)[O-])cc([N+](=O)[O-])c3)n2CCOC2OC(CN)C(O)C2O)c1 (stereo not drawn) | broth microdilution | Mu50 MRSA VISA | 18 to 24 h, 37 °C | > 64 µg/mL
CN[C@H](CC(C)C)C(=O)N[C@H]1C(=O)N[C@@H](CC(N)=O)C(=O)N[C@H]2C(=O)NC3C(=O)N[C@H](C(=O)N[C@H](C(=O)NCCC[N+](C)(C)C)c4cc(O)cc(O)c4-c4cc3ccc4O)[C@H](O)c3ccc(c(Cl)c3)Oc3cc2cc(c3OC2OC(CO)C(O)[C@H](O)[C@@H]2O[C@H]2CC(C)(NCc3ccc(-c4ccc(Cl)cc4)cc3)[C@H](O)[C@H](C)O2)Oc2ccc(cc2Cl)[C@H]1O (stereo partly drawn) |  | VRS2 (VanA VRSA) |  | 4 µg/mL
CC[C@H](C)[C@H](NC(=O)[C@H](CC(C)C)NC(=O)[C@H](CCCNC(=N)N)NC(=O)[C@@H](N)CCCNC(=N)N)C(=O)N[C@@H](CCCNC(=N)N)C(=O)N[C@H](C(=O)N[C@@H](CC(=O)O)C(=O)N[C@H](C(=O)NCC(=O)N1CCC[C@H]1C(=O)N[C@H](C(=O)N[C@H](C(=O)N[C@@H](Cc1ccc(O)cc1)C(=O)N[C@@H](CC(=O)O)C(=O)N[C@@H](Cc1ccc(O)cc1)C(=O)N[C@@H](Cc1ccccc1)C(=O)N[C@@H](CCCCN)C(=O)N[C@@H](CC(=O)O)C(=O)N[C@@H](CCC(N)=O)C(=O)N[C@@H](CC(C)C)C(=O)N[C@@H](CC(C)C)C(=O)N[C@@H](CCCCN)C(=O)N[C@@H](CCCCN)C(N)=O)[C@@H](C)CC)[C@@H](C)CC)[C@@H](C)O)[C@@H](C)O |  | CCARM 3095, methicillin-resistant, Mueller-Hinton broth | 24 h | > 128 µM
CC[C@H](C)[C@H](NC(=O)CN)C(=O)N[C@@H](C)C(=O)N[C@@H](CC(=O)O)C(=O)N[C@@H](C)C(=O)N[C@H](C(=O)N[C@@H](CCCCN)C(=O)N[C@@H](C)C(=O)N[C@H](C(=O)N[C@@H](C)C(=O)N[C@@H](CCCCN)C(=O)N[C@@H](C)C(=O)N[C@@H](CC(C)C)C(=O)NCC(N)=O)[C@@H](C)CC)[C@@H](C)CC |  | ATCC 29213, Mueller-Hinton broth | 12 h, 37 °C | 32 µg/mL
CC[C@H](C)[C@H](NC(=O)[C@H](CC(C)C)NC(=O)[C@H](CCCNC(=N)N)NC(=O)[C@@H](N)CCCNC(=N)N)C(=O)N[C@@H](CCCNC(=N)N)C(=O)N[C@@H](CCCCN)C(=O)N[C@@H](CC(C)C)C(=O)N[C@@H](CCCCN)C(=O)NCC(=O)N[C@@H](CC(C)C)C(=O)N[C@@H](CCCCN)C(=O)N[C@@H](CCCCN)C(=O)N[C@@H](Cc1ccc(O)cc1)C(=O)N[C@@H](CC(C)C)C(=O)N[C@@H](Cc1ccc(O)cc1)C(=O)N[C@@H](Cc1ccccc1)C(=O)N[C@@H](CCCCN)C(=O)N[C@@H](CC(C)C)C(=O)N[C@@H](CCC(N)=O)C(=O)N[C@@H](CC(C)C)C(=O)N[C@@H](CC(C)C)C(=O)N[C@@H](CCCCN)C(=O)N[C@@H](CCCCN)C(N)=O |  | KCTC 1621, Mueller-Hinton broth | together with: 150 mM NaCl | 4 µM
CC(C)C[C@H](NC(=O)CNC(=O)CNC(=O)CNC(=O)[C@H](Cc1ccc(O)cc1)NC(=O)[C@H](CC(C)C)NC(=O)[C@@H](NC(=O)CNC(=O)[C@H](Cc1ccc(O)cc1)NC(=O)[C@H](CCCCN)NC(=O)[C@H](CC(N)=O)NC(=O)[C@@H](NC(=O)[C@H](CCCCN)NC(=O)[C@H](Cc1c[nH]c2ccccc12)NC(=O)CN)[C@@H](C)O)[C@@H](C)O)C(=O)N[C@@H](CCCCN)C(=O)N[C@@H](CCCCN)C(=O)N[C@@H](CC(C)C)C(=O)N[C@@H](CC(C)C)C(=O)N[C@@H](CC(C)C)C(=O)N[C@@H](CC(C)C)C(=O)N[C@@H](CC(C)C)C(=O)N[C@@H](CCCCN)C(=O)N[C@@H](CCCCN)C(=O)N[C@@H](CC(C)C)C(=O)NCC(=O)O |  | ATCC 25923 | together with: 2 mM CaCl2 | 16 µg/mL
COC(=O)c1cc(-c2cccc(NC(=O)Nc3cccc(Cl)c3Cl)c2)on1 |  | ATCC 29213, CAMHB | 16 to 18 h | 8 µg/mL
